Measurements pooled from the literature.
Each line is one published result; not all experiments were run side by side. Values joined by “and” are separate records of one study, mostly repeats; a detail may differ. ± marks the error that the study gave.
Chain of UniProt Q8BLF1 (whole entry, looked up): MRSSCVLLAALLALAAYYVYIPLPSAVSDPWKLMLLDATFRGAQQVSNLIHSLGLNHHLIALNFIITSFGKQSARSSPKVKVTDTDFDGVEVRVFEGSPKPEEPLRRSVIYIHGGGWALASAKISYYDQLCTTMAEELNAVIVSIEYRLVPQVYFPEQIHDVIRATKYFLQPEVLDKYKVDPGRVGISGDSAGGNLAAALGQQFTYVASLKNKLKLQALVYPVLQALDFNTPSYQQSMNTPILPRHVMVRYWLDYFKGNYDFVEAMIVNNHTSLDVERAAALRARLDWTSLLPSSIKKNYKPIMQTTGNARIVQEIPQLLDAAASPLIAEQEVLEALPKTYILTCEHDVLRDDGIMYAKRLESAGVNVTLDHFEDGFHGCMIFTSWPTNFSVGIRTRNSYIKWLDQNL
Chain of UniProt Q007T0 (whole entry, looked up): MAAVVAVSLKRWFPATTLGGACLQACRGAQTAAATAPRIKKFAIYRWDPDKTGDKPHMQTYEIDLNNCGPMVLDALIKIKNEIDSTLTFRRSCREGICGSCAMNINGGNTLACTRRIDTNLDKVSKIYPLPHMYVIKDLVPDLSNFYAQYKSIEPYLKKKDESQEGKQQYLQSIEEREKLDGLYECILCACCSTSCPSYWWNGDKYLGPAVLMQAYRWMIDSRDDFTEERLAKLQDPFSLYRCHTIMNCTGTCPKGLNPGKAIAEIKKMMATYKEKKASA
Chain of UniProt A5GZW8 (whole entry, looked up): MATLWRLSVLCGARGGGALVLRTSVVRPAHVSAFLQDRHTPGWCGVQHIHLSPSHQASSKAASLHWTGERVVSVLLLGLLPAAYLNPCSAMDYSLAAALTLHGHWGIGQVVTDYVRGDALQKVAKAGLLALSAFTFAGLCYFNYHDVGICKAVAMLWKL
Chain of UniProt D0VWV4 (whole entry, looked up): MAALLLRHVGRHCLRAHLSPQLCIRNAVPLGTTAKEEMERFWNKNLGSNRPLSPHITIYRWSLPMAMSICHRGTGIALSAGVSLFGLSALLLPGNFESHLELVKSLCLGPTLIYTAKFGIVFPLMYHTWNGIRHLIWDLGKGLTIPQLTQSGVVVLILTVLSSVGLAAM
Chain of UniProt Q6DWJ6 (whole entry, looked up): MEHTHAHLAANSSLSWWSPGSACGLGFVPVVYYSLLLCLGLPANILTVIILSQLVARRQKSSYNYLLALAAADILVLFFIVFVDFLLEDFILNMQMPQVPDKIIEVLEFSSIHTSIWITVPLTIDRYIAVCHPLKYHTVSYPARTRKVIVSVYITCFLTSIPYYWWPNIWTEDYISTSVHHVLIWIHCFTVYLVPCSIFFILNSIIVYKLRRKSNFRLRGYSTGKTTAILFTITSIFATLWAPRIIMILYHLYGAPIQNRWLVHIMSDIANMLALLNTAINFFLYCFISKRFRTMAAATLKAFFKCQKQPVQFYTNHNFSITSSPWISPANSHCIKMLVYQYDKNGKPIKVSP
Chain of UniProt P06239 (whole entry, looked up): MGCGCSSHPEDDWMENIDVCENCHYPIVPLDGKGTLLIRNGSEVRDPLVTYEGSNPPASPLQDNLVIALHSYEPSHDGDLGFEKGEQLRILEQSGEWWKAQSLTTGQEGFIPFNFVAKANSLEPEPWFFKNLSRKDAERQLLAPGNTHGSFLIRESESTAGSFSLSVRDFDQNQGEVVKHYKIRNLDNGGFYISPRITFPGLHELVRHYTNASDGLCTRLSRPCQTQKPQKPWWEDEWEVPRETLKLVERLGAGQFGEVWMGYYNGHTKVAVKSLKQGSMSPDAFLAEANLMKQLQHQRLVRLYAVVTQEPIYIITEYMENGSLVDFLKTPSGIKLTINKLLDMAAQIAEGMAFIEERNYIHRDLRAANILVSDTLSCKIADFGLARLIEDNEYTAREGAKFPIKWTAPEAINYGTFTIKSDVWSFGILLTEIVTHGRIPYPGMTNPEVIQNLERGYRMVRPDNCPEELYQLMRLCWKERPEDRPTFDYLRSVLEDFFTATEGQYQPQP
Chain of UniProt P11362 (whole entry, looked up): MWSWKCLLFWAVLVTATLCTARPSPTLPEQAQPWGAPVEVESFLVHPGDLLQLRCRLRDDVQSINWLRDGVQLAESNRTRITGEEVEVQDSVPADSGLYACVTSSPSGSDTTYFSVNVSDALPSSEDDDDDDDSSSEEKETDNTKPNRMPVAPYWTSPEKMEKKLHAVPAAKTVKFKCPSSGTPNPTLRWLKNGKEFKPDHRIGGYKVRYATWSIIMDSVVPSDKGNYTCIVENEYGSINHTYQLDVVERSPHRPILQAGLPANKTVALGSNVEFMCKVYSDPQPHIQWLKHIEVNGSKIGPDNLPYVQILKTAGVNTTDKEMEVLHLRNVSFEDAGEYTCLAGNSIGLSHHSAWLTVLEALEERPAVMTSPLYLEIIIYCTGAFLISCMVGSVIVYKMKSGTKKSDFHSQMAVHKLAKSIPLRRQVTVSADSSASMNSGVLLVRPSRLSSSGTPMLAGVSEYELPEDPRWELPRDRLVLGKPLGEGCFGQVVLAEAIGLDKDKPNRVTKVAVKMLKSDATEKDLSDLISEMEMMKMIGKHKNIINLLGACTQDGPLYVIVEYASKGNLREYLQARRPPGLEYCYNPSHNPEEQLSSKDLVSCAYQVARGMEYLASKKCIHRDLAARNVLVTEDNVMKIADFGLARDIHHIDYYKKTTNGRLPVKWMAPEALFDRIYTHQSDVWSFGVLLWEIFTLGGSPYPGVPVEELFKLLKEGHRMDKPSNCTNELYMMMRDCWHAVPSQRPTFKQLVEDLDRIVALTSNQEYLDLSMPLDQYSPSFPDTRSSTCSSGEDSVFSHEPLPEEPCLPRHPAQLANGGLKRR
Chain of UniProt P07332 (whole entry, looked up): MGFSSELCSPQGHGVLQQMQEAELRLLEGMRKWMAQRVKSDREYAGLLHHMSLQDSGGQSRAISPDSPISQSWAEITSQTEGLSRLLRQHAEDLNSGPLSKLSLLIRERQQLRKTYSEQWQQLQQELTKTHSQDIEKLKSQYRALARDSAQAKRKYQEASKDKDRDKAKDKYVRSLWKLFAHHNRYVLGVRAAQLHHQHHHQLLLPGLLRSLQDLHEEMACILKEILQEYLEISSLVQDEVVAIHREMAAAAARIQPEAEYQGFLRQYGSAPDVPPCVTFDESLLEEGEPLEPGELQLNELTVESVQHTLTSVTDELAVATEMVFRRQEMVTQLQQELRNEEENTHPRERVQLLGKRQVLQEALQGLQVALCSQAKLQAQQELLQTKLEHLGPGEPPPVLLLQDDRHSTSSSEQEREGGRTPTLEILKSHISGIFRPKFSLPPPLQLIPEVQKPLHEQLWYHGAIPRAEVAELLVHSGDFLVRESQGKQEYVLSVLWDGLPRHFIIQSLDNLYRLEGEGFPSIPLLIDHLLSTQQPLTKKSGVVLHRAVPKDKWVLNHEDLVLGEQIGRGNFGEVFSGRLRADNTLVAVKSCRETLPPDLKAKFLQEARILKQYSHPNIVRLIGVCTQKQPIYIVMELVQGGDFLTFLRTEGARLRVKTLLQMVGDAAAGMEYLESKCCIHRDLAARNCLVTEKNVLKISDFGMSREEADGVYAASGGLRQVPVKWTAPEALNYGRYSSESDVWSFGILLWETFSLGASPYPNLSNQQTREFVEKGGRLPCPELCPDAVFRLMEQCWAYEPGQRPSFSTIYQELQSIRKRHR
Chain of UniProt P35367 (whole entry, looked up): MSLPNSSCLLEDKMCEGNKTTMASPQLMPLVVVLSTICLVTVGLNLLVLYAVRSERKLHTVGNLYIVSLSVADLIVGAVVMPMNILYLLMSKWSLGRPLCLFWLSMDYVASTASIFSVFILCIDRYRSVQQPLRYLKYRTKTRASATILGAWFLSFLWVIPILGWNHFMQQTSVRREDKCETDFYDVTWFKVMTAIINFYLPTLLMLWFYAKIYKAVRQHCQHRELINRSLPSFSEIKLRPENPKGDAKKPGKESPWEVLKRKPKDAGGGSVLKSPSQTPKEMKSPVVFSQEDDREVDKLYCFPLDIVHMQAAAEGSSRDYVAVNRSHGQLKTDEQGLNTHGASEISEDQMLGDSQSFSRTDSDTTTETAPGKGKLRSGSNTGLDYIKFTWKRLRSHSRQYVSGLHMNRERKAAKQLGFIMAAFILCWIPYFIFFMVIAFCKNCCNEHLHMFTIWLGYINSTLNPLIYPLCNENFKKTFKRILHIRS
Chain of UniProt P33533 (whole entry, looked up): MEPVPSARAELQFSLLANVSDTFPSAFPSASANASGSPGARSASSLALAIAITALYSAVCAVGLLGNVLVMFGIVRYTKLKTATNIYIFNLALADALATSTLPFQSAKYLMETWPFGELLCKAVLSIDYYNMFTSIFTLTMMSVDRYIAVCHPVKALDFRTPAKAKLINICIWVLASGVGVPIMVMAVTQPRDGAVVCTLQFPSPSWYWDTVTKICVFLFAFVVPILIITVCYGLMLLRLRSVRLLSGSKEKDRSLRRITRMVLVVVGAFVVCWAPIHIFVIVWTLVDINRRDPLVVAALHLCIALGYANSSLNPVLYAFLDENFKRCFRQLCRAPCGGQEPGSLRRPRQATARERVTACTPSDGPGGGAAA
Chain of UniProt P0A988 (whole entry, unmodified, looked up): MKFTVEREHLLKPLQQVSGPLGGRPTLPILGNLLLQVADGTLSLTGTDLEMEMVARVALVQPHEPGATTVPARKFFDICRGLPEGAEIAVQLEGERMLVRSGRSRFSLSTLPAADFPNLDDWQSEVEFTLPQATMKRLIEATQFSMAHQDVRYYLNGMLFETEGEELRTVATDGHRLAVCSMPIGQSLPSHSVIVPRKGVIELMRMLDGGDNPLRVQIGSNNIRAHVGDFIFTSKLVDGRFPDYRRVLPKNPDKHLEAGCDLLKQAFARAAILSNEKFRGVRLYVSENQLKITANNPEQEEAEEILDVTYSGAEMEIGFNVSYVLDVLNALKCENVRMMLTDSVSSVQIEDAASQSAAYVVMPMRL

| Compound | target or system | test | system | setting | how to read | endpoint | value |
| --- | --- | --- | --- | --- | --- | --- | --- |
| CON(C(=O)c1cn(C)nc1C(F)F)C(C)Cc1c(Cl)cc(Cl)cc1Cl (stereo not shown) | SDHD/SDHC/SDHB (Sus scrofa, UniProt A5GZW8+D0VWV4+Q007T0) | enzyme activity, inhibitor, DCIP reduction | pig | 0.1 µM, together with: DCIP 20 µM |  | reaction velocity | 0.00727 µM/s and 0.00734 µM/s and 0.00645 µM/s |
| OC[C@H]1CNCCN1C[C@@H]1CCCN1C[C@H](CC1CCCCC1)N1CCN(CCCC2CCCC2)[C@H](Cc2ccc(O)cc2)C1 | Delta-type opioid receptor (Oprd1, Rattus norvegicus, UniProt P33533) | radioligand binding | rat brain membranes | 500 nM, pH 7.5, 25 °C, together with: 2 nM [3H]DPDPE |  | remaining binding | 91.8% |
| C=CC(=O)NC[C@H](NC(=O)[C@H](CC1CCCCC1)NC(=O)[C@H](CCC(N)=O)NC(C)=O)C(=O)N[C@@H](CC(C)C)C(=O)N[C@@H](Cc1ccccc1)C(=O)O | Beta sliding clamp (Escherichia coli, UniProt P0A988) | binding, isothermal titration calorimetry |  | 25 °C |  | ΔH | -12.8 kcal/mol |
| C#CCCCCOc1ccc2c(c1)CCCN2C(=O)CCl | SCARB2 (Homo sapiens, UniProt Q14108) | mass spectrometry profiling | H460 cell lysate | 100 µM over 10 µM, UniProt Q14108 | baseline: high over low concentration | reactivity ratio | 1.2 |
| CC(C)CC(O)(CC(C)C)c1cn(C(=O)N2CCCC2)nn1 | Neutral cholesterol ester hydrolase 1 (Mus musculus, UniProt Q8BLF1) | probe labelling, inhibitor, competitive ABPP-SILAC, refers to: Aadacl1 | mouse T cells | concentration not given, 4 h, single peptide | baseline: treated over DMSO cells, lower = stronger inhibition | SILAC activity ratio | 1.21 and 1 and 1.19 and 1.28 and 1.4 |
| O=C1NC(=O)c2c1c1cc(F)c[n+]3c1c1c2c2cc(O)ccc2[n]1[Ru-4]312([N]=C=S)[S+]3CC[S+]1CC[S+]2CC3 (stereo not shown) | Activated CDC42 kinase 1 (TNK2, Homo sapiens, UniProt Q07912) | enzyme activity |  | 100 nM, human enzyme, together with: 10 µM ATP | baseline: untreated | remaining activity | 53% |
| CN(C)[C@H]1C[C@@]23CC[C@@]4(O2)C(=CC[C@]2(C)[C@@H](c5ccc6ccncc6c5)CC[C@H]24)C=C3[C@@H](O)[C@@H]1O | Tyrosine-protein kinase Fes/Fps (FES, Homo sapiens, UniProt P07332) | ATP probe labelling, inhibitor, KiNativ profiling |  | 1 µM |  | inhibition | -8.5% |
| CC(C)[C@H]1NC(=O)C[C@H]2/C=C/CCSSC[C@@H](NC1=O)C(=O)N[C@H](Cc1cccc3ccccc13)C(=O)NCC(=O)O2 | Fibroblast growth factor receptor 1 (FGFR1, Homo sapiens, UniProt P11362) | enzyme activity, inhibitor |  | 10 µM |  | inhibition | 9.6% |
| O=C1NC2(CC2)COc2ncc(F)cc2[C@H]2COCCN2c2ccn3ncc1c3n2 |  |  | Sprague-Dawley rat, female, adrenals | oral, 20 mg/kg/day, 4 weeks |  | organ weight | 0.076 ± 0.007 g |
| CC[C@H](C)[C@H](NC(=O)[C@H](CCCNC(=N)N)NC(=O)[C@H](CCCNC(=N)N)NC(=O)[C@H](CC(C)C)NC(=O)[C@H](Cc1ccccc1)NC(=O)CNC(=O)CNC(=O)[C@@H](N)Cc1ccc(O)cc1)C(=O)N[C@@H](CCCNC(=N)N)C(=O)N1CCC[C@H]1C(=O)N[C@@H](CCCCN)C(=O)N[C@@H](CC(C)C)C(=O)N[C@@H](CCCCN)C(=O)O | Probable G-protein coupled receptor 139 (GPR139, Homo sapiens, UniProt Q6DWJ6) | Gαi3 activation, agonist, BRET | HEK293T/17 | 40 µM |  | Emax | 65.8% |
| CCCO[C@H]1[C@H](O)[C@@H](N)[C@@H](O[C@H]2[C@H](O[C@@H]3O[C@H](CO)[C@@H](O[C@H]4O[C@@H](CN)[C@@H](O)[C@H](O)[C@H]4N)[C@H]3O)[C@@H](O)[C@H](N)C[C@@H]2N)O[C@@H]1CO | Tyrosine-protein kinase Lck (LCK, Homo sapiens, UniProt P06239) | cell-free assay |  | 10 µM |  | remaining signal | 35% |
| C/C(=N\OCCCN1CCCCC1)c1ccc(C(F)(F)F)cc1 | Histamine H1 receptor (HRH1, Homo sapiens, UniProt P35367) | agonist, IP-One |  | 10 µM |  | activation | 2.33% |
| CS(C)(=O)=Nc1ccc(-c2ccc(-c3nc4cc(O[C@@H]5CO[C@H]6[C@@H]5OC[C@H]6O)[nH]c4cc3F)cc2)cc1 | Tyrosine-protein kinase SYK (SYK, Homo sapiens, UniProt P43405) | enzyme activity, inhibitor |  | 10 µM |  | inhibition | -24% |
